Measurements of several laboratories.
Compare with care: the assays were run in different laboratories.
Cell line: Hs-578T

SMILES | assay | conditions | how to read | quantity | result
Cc1ccc([N+](=O)[O-])cc1S(=O)(=O)N(C)/N=C/c1cnc2ccc(Br)cn12 | cell growth or viability |  |  | IC50 | 586 nM
O=C(Nc1nnc2c1c(-c1ccc(Cl)cc1)nc1sc(=Cc3ccco3)c(=O)n12)c1ccccc1 (mixture of isomers) | SRB | 10 µM, NCI60 single-dose screen | relative to: untreated | cell growth | 58.2%
CN(C)CCN1CCN(c2ccc3nc(-c4ccc5nc(-c6ccc(C(F)(F)F)cc6)[nH]c5c4)[nH]c3c2)CC1 | SRB | 10 µM, 48 h |  | growth percent | 52.8%
C1=[N+]2CCCC[N+]3=Cc4ccc5[n]4[Au-]23[n]2c1ccc2-c1nc2ccccc2nc1-5.F[P-](F)(F)(F)(F)F | NCI60 five-dose screen |  |  | TGI | 4 -log M
CNS(=O)(=O)Nc1nccc(Cc2c(C)c3ccc(Oc4ncccc4F)cc3oc2=O)c1F | cell viability | 7 days |  | IC50 | > 1000 nM
CC(C)c1ccc(N(C)c2ccc3c(c2)OCC[C@H]3CNc2cnccc2C(=O)O)cc1 | cell viability, CellTiter-Glo | 7 days |  | IC50 | 13.9 nM
CCN(C(=O)c1cc(F)ccc1Oc1nncnc1N1CCC2(C1)CN([C@H](CCCN(C)CCOC)C(C)C)C2)C(C)C | cell growth or viability | 7 days |  | GI50 | > 10000 nM
COC(=O)N1c2ccc3c(nc(Cc4ccccc4)n3[C@@H]3CCC[C@@H](C(=O)O)C3)c2CC[C@@H]1C | cell growth or viability, ATP luminescence | 10 days |  | IC50 | 1020 nM
